# Published values collected from several papers.
# Parts stem from different laboratories: compare values within a part only.
# Sequence of UniProt P48730 (whole entry, looked up): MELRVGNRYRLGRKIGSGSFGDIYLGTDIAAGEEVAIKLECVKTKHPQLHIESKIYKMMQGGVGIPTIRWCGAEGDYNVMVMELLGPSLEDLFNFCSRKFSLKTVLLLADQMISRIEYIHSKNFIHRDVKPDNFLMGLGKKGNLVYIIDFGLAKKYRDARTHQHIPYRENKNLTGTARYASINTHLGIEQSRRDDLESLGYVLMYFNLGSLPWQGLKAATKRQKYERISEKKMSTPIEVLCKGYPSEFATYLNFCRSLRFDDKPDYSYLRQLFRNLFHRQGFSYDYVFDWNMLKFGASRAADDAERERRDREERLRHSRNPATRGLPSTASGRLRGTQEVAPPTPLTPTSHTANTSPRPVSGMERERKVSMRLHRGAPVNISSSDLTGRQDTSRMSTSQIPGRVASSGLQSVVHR
# Sequence of UniProt O95382 (whole entry, looked up): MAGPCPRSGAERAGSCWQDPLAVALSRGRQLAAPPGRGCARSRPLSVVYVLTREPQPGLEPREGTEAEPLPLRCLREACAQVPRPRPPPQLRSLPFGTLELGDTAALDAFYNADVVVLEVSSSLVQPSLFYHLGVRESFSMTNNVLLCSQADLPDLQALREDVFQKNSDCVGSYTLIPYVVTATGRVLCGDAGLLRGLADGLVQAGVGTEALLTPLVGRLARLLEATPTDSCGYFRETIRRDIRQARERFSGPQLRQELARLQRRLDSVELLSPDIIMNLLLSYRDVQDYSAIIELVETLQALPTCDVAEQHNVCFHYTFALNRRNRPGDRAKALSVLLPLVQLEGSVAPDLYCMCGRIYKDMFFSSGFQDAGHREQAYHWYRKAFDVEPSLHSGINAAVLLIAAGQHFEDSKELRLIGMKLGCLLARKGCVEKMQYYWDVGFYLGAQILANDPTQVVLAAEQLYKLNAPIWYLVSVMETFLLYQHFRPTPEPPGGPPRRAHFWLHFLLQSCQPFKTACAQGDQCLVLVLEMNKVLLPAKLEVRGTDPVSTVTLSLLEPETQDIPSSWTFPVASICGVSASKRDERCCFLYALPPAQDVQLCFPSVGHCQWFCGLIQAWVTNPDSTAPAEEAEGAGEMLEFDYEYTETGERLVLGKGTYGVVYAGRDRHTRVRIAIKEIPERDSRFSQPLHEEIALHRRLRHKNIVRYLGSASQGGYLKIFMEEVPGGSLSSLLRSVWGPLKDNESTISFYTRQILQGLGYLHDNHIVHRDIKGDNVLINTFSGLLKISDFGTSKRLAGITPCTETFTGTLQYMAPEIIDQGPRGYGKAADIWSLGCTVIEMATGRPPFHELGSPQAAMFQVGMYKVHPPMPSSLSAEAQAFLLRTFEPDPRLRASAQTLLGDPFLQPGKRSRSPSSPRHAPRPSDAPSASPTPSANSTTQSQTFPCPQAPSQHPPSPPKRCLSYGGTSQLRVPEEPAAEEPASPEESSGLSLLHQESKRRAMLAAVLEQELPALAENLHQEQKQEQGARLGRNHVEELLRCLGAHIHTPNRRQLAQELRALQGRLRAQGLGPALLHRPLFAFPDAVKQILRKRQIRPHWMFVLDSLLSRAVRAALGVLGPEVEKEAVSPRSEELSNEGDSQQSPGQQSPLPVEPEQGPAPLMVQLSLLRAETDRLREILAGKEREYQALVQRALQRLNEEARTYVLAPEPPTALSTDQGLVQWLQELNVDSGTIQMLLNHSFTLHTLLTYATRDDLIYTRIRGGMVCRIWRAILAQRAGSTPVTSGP
# Sequence of UniProt P37023 (whole entry, looked up): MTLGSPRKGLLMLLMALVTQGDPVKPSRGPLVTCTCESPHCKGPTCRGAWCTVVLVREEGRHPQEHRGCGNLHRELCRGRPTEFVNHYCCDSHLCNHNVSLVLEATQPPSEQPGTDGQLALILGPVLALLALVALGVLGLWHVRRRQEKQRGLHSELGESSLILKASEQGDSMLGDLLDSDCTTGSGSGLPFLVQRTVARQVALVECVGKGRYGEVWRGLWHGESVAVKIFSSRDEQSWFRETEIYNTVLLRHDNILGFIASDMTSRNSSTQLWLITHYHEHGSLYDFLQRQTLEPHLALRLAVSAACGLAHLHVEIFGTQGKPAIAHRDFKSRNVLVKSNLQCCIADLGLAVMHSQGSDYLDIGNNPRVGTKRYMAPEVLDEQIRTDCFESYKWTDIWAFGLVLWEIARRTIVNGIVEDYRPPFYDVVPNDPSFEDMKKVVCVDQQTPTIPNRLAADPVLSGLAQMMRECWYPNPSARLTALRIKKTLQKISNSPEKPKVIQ
# Sequence of UniProt P51817 (whole entry, looked up): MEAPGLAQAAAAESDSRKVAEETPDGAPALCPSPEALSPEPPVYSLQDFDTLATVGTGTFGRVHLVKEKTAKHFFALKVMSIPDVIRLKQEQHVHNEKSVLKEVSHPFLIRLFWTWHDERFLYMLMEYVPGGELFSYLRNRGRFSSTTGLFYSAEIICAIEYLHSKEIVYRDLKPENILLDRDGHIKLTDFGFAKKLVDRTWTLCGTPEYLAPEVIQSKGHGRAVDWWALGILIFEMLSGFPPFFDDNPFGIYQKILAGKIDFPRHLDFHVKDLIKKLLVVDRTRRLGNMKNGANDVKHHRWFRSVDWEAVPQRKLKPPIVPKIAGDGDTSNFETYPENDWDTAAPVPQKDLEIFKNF
# Sequence of UniProt Q02750 (whole entry, looked up): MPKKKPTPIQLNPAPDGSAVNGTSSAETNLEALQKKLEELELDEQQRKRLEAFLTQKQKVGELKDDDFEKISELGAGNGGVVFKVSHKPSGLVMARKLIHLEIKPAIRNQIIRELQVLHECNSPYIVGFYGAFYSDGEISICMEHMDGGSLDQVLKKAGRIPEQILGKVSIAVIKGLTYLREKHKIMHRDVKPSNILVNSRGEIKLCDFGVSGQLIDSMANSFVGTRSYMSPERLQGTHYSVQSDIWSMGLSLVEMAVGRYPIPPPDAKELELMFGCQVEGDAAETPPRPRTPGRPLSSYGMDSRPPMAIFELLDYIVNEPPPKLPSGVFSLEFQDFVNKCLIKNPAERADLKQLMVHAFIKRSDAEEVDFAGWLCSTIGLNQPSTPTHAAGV
# Sequence of UniProt Q12851 (whole entry, looked up): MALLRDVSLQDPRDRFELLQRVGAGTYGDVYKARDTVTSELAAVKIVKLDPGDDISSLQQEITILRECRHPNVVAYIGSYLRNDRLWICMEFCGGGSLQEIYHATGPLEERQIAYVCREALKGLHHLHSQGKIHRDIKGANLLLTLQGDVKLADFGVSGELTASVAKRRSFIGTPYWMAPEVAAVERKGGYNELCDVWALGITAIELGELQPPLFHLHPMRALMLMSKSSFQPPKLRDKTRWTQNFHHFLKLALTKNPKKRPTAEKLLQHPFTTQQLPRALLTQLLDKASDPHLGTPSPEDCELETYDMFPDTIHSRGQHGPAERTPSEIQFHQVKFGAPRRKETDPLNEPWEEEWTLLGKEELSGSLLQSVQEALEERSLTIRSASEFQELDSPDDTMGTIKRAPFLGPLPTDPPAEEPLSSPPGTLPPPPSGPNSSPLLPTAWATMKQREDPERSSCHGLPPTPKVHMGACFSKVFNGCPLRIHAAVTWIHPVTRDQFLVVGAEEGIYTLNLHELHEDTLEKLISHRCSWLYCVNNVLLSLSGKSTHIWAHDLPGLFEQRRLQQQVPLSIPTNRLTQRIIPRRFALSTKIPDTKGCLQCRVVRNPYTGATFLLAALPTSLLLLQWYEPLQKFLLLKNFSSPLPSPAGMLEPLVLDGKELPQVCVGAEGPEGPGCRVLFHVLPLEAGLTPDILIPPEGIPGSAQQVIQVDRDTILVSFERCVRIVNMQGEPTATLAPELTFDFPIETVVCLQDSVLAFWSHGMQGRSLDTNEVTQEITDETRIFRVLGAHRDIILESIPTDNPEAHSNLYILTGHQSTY

# Set 1
# SMILES: [2H]c1c([2H])c([C@]2([2H])CCCN2C(=O)C(C)(C)Oc2ccc3cn[nH]c3c2)c([2H])c([2H])c1C([2H])([2H])[2H]
# Read-out: binding
# Technique: competition with immobilised ligand
# Tested at: 1 µM
target,remaining binding [%]
"cAMP-dependent protein kinase catalytic subunit PRKX (PRKX, Homo sapiens, UniProt P51817)",75
"Receptor-type tyrosine-protein kinase FLT3, autoinhibited (FLT3, Homo sapiens, UniProt P36888)",100
"Dual specificity mitogen-activated protein kinase kinase 1 (MAP2K1, Homo sapiens, UniProt Q02750)",85
"Mitogen-activated protein kinase kinase kinase 6 (MAP3K6, Homo sapiens, UniProt O95382)",78
"Activin receptor type-1-like (ACVRL1, Homo sapiens, UniProt P37023)",88
"Casein kinase I isoform delta (CSNK1D, Homo sapiens, UniProt P48730)",66
"Mitogen-activated protein kinase kinase kinase kinase 2 (MAP4K2, Homo sapiens, UniProt Q12851)",61
"Phosphatidylinositol 5-phosphate 4-kinase type-2 beta (PIP4K2B, Homo sapiens, UniProt P78356)",100

# Mixed results
# CA9: Carbonic anhydrase 9 (CA9, Homo sapiens, UniProt Q16790)
# CSNK1D: Casein kinase I isoform delta (CSNK1D, Homo sapiens, UniProt P48730)
Structure (SMILES),tested on,assay,system,conditions,measurement,value
Cc1cc([C@@H](C)Nc2ccccc2C(=O)O)c2nc(N3CCC(F)(F)CC3)c(C#N)c(=O)n2c1,"Serine/threonine-protein kinase B-raf (BRAF, Homo sapiens, UniProt P15056)","binding, competition with immobilised ligand",,1 µM,remaining binding,68%
NS(=O)(=O)c1ccc(F)c(CNc2c(S(N)(=O)=O)ccc3ccccc23)c1,CA9,"enzyme activity, inhibitor",,,IC50,50 nM
CC(=O)Nc1sc2c(c1-c1nc3ccccc3s1)CCN(C(C)C)C2,CSNK1D,"binding, SPR",,,Kd,> 50000 nM
COc1cccc(-c2n[nH]c(SCc3ccccn3)n2)c1OC,,,"female Sprague-Dawley rat, plasma","intravenous, 1 mg/kg, 2 h, single dose",concentration,63.6 ng/mL
CCCCC(=O)Nc1ccc(-c2ccc3ncn(CCC)c(=O)c3c2)cn1,"Mitogen-activated protein kinase kinase kinase 6 (MAP3K6, Homo sapiens, UniProt O95382)","binding, competition with immobilised ligand",,0.5 µM,remaining binding,100%
C1=C/COCc2cc(ccc2OCCN2CCCC2)Nc2nccc(n2)-c2cccc(c2)COC/1,"Interleukin-1 receptor-associated kinase 3 (IRAK3, Homo sapiens, UniProt Q9Y616)",binding,,0.1 µM,remaining binding,12%
O=C(COc1cccc2ccccc12)Nc1nc2ccccc2[nH]1,CSNK1D,"binding, SPR",,,Kd,1100 nM
CN(Cc1cn(-c2ccccc2)nc1-c1cccs1)C(=O)c1cc(S(N)(=O)=O)ccc1O,CA9,"enzyme activity, inhibitor",,,IC50,100 nM
